Assay results of several laboratories.
Lines come from different studies, so protocols differ. Values joined by “and” are separate records of one study, mostly repeats; a detail may differ. ± marks the error that the study gave.

`O=C(C[Se]C(=O)c1ccccc1)Nc1cccc(C(F)(F)F)c1` has a TGI of 8.5 µM (NCI60 breast subpanel mean; cell growth).
With `C=CCN1C(=O)C(CC=C)(C(=O)OCC)Oc2cc(F)ccc21` (stereo not drawn) the inhibition was 0.41 ± 0.19% (HEK293T; cytotoxicity, CCK-8; 25 µM, 72 h).
The protein level of `CC(C)CC(O)(CC(C)C)c1cn(C(=O)N2CCCC2)nn1` is reported as 0.99 (mouse T-cells; SILAC proteomics, measured: EFHD2; 1 nM, 6 h, unit not given; reference: DMSO).
`C#CCN1C(=O)C(CC#C)(C(=O)OCC)Oc2ccccc21` (stereo not drawn) gave an inhibition of 0.27 ± 0.56% (HEK293T; cytotoxicity, CCK-8; 6.25 µM, 72 h).
The inhibition of `N[C@H](C(=O)N1CCCC1)C1CCN(c2nccc3c(-c4ncc(Cl)cc4Cl)cccc23)CC1` is reported as 1.46% and -0.575% and 5.02% and -10.3% (human neutrophils; protein citrullination, inhibitor, flow cytometry, measured: citrullinated proteins; 3.16 nM, with: ionomycin).
Under “mean growth percent”, `O=C(C[Se]C(=O)c1cccs1)Nc1cccc(C(F)(F)F)c1` is recorded as -88.3% (NCI60 non-small-cell lung subpanel; cell growth; 10 µM, 48 h, one-dose).
With `CC(C)[C@H](NC(=O)[C@H](CCCNC(=N)N)NC(=O)[C@@H]1CCCN1C(=O)[C@@H](NC(=O)[C@H](C)NC(=O)[C@H](Cc1ccc(O)cc1)NC(=O)[C@H](CCC(N)=O)NC(=O)[C@H](CCCCN)NC(=O)[C@H](CCCNC(=N)N)NC(=O)[C@@H]1CCCN1C(=O)[C@H](CCC(=O)O)NC(=O)[C@@H](NC(=O)[C@H](C)N)[C@@H](C)O)[C@@H](C)O)C(=O)N[C@@H](Cc1ccccc1)C(=O)N[C@@H](Cc1c[nH]c2ccccc12)C(=O)N[C@H](C(=O)N[C@@H](CC(=O)O)C(=O)N[C@@H](C)C(=O)N1CCC[C@H]1C(=O)NCC(=O)NCCOCCOCCOCCOCCOCCOCCOCCOCCOCCOCCOCCOCCC(=O)N[C@@H](CS)C(N)=O)[C@@H](C)O` the selectivity ratio was 2 ± 0.87 (H2347 lung adenocarcinoma; cell binding, phage binding, measured: output/input phage; 10 min, 37 °C; reference: control phage).
For `CC[C@H](C)[C@H](NC(=O)[C@H](C)NC(=O)CNC(=O)[C@H](Cc1ccccc1)NC(=O)[C@H](CC(N)=O)NC(=O)[C@H](CC(N)=O)NC(=O)[C@H](CO)NC(=O)[C@H](CO)NC(=O)[C@H](Cc1c[nH]cn1)NC(=O)[C@@H](NC(=O)[C@H](CC(C)C)NC(=O)[C@H](Cc1ccccc1)NC(=O)[C@H](CC(N)=O)NC(=O)[C@H](C)NC(=O)[C@H](CC(C)C)NC(=O)[C@H](CCCNC(=N)N)NC(=O)[C@H](CCC(N)=O)NC(=O)[C@@H](NC(=O)[C@H](C)NC(=O)[C@@H]1CSSC[C@H](NC(=O)[C@@H](N)CCCCN)C(=O)N[C@@H](CC(N)=O)C(=O)N[C@@H]([C@@H](C)O)C(=O)N[C@@H](C)C(=O)N[C@@H]([C@@H](C)O)C(=O)N1)[C@@H](C)O)C(C)C)C(=O)N[C@@H](CC(C)C)C(=O)N[C@@H](CO)C(=O)N[C@@H](CO)C(=O)N[C@H](C(=O)N[C@@H](CC(N)=O)C(=O)N[C@H](C(=O)NCC(=O)N[C@@H](CO)C(=O)N[C@@H](CC(N)=O)C(=O)N[C@H](C(=O)N[C@@H](Cc1ccc(O)cc1)C(N)=O)[C@@H](C)O)C(C)C)[C@@H](C)O`, the internalized fraction was < 3% and < 2% (RIN-m5F; ELISA; pure mitochondrial fraction; 24 h; reference: total).
`O=C(C[Se]C(=O)c1cc2ccccc2o1)Nc1cccc(C(F)(F)F)c1` has a CC50 of 6.43 µM (NCI60 renal subpanel; cytotoxicity, inhibitor; five-dose).
`CCOC(=O)C1(Cc2ccccc2)Oc2cc(F)ccc2N(Cc2ccccc2)C1=O` (stereo not drawn) gave an inhibition of 0.71 ± 0.23% (HEK293T; cytotoxicity, CCK-8; 100 µM, 72 h).
For `O=C1NC2(CC2)COc2ncc(F)cc2[C@H]2COCCN2c2ccn3ncc1c3n2`, the haemoglobin was 123 ± 17 g/L (Sprague-Dawley rat, female, blood; oral, 20 mg/kg/day, 4 weeks, end of treatment, subacute toxicity).
`Cc1c(Cl)cccc1Nc1ccccc1C(=O)[Se]CC(=O)Nc1cccc(C(F)(F)F)c1` has a CC50 of 6.44 µM (NCI60 renal subpanel; cytotoxicity, inhibitor; five-dose).
With `CC(ON1C(C)(C)CCCC1(C)C)c1ccc(NC(=O)[C@@H](NC(=O)[C@@H]2CCCN2C(=O)[C@H](C)NC(=O)[C@H](C)NC(=O)CCC(=O)O)C(C)C)cc1` (stereo partly drawn) the LC50 was 150 µM (U87; PrestoBlue; without HNE).
For `O=C(C[Se]C(=O)c1cccnc1Nc1cccc(C(F)(F)F)c1)Nc1cccc(C(F)(F)F)c1`, the CC50 was 6.13 µM (NCI60 renal subpanel; cytotoxicity, inhibitor; five-dose).
For `[Cl-].[Cl-].[Ru+2].c1ccc(-c2ccccn2)nc1.c1ccc(-c2ccccn2)nc1.c1ccc2cc3nc4c5cccnc5c5ncccc5c4nc3cc2c1`, the phototoxicity index was 670 (SK-MEL-28; normoxia, with: green light 523 nm, 100 J/cm2; reference: dark over light EC50).
With `CC(C)(C)C(=O)OCOP(=O)(OCOC(=O)C(C)(C)C)C1CCCN(O)C1=O` (stereo not drawn) the CC50 was 6.34 µM (SK-MEL-28).
`Cc1cccc(-c2cccc(C)n2)n1.Cc1cccc(-c2cccc(C)n2)n1.F[P-](F)(F)(F)(F)F.F[P-](F)(F)(F)(F)F.[Ru+2].c1ccc2c(-c3nc4c5cccnc5c5ncccc5c4[nH]3)cccc2c1` gave an EC50 of 6.94 µM and 6.9 µM (SK-MEL-28; cell viability; 1% O2, with: blue light 453 nm, 100 J/cm2).
`CC(C)C[C@H](NC(=O)[C@H](CC(=O)O)NC(=O)CNC(=O)[C@@H](N)CCCNC(=N)N)C(=O)N[C@@H](C)C(=O)N[C@H](C(=O)N[C@@H](CC(C)C)C(=O)N[C@@H](CCCNC(=N)N)C(=O)N[C@@H](CCC(N)=O)C(=O)N[C@@H](CC(C)C)C(=O)N[C@@H](C)C(=O)N[C@@H](CCC(N)=O)C(=O)N[C@@H](CCC(=O)O)C(=O)N[C@@H](CC(=O)O)C(=O)NCC(=O)N[C@H](C(=O)N[C@H](C(=O)NCC(=O)N[C@H](C(=O)N[C@@H](CCCNC(=N)N)C(=O)NCCOCCOCCOCCOCCOCCOCCOCCOCCOCCOCCOCCOCCC(=O)N[C@@H](CS)C(N)=O)C(C)C)C(C)C)C(C)C)[C@@H](C)O` has a selectivity ratio of 68 ± 17 (H322; phage binding; 10 min, 37 °C; reference: control phage).
For `COc1ccccc1-c1ccncc1C(=O)Nc1nnc(OCc2ccc(Cl)cc2)s1`, the colony survival was 55.7% (RPE-1 TP53-/- BRCA1-/-; 0.125 µM, average of 2 runs; reference: untreated).
`CC(=O)NCSC[C@H](NC(=O)[C@@H]1CCCN1C(=O)[C@H](C)NC(=O)[C@@H](NC(=O)CNC(=O)[C@@H](NC(=O)[C@H](Cc1c[nH]c2ccccc12)NC(=O)[C@H](C)NC(=O)CNC(=O)[C@H](CO)NC(=O)[C@H](C)NC(=O)[C@@H]1CCCN1C(=O)[C@H](Cc1c[nH]c2ccccc12)NC(=O)[C@H](C)NC(=O)[C@H](C)NC(=O)[C@@H](N)Cc1ccc(O)cc1)[C@@H](C)O)[C@@H](C)O)C(=O)N[C@@H](CO)C(=O)N[C@@H](C)C(=O)NCC(=O)N[C@H](C(=O)NCCOCCOCCOCCOCCOCCOCCOCCOCCOCCOCCOCCOCCC(=O)N[C@@H](CS)C(N)=O)[C@@H](C)O` gave a selectivity ratio of 2.6 ± 0.97 (MDA-MB-468 breast cancer; cell binding, phage binding, measured: output/input phage; 10 min, 37 °C; reference: control phage).
`CC1CCC2C(C)C(OC(=O)CCC(=O)N3CCC(Nc4ccc(S(=O)(=O)NC(=O)c5ccc(N6CCN(CC7=C(c8ccc(Cl)cc8)CC(C)(C)CC7)CC6)cc5Oc5cnc6[nH]ccc6c5)cc4[N+](=O)[O-])CC3)OC3OC4(C)CCC1C32OO4` (stereo not drawn): “late apoptotic cells” 20.3% (THP-1; annexin V/PI flow cytometry, measured: annexin V+/PI+; 1.6 µM, 24 h).
With `Cc1cc(Oc2nc(N3CC[C@@H](c4ccncc4)C3)ncc2F)[nH]n1` the IC50 was 28.8 µM (JEG-3; cell proliferation).
With `O=C(C[Se]C(=O)c1ccco1)Nc1cccc(C(F)(F)F)c1` the GI50 was 3.4 µM (NCI60 renal subpanel; cell growth, inhibitor; five-dose).
`CSCC[C@H](NC(=O)[C@@H](NC(=O)[C@H](CCC(N)=O)NC(=O)[C@H](CO)NC(=O)[C@@H](N)C(C)C)[C@@H](C)O)C(=O)N[C@@H](CCCNC(=N)N)C(=O)N[C@@H](CCC(N)=O)C(=O)N[C@H](C(=O)N[C@@H](C)C(=O)N[C@H](C(=O)N1CCC[C@H]1C(=O)N[C@@H](CC(C)C)C(=O)N[C@@H](CC(C)C)C(=O)N[C@@H](Cc1c[nH]c2ccccc12)C(=O)N[C@@H](Cc1ccccc1)C(=O)N[C@@H](Cc1c[nH]c2ccccc12)C(=O)N[C@H](C(=O)NCC(=O)N[C@@H](CO)C(=O)N[C@@H](CC(C)C)C(=O)NCCOCCOCCOCCOCCOCCOCCOCCOCCOCCOCCOCCOCCC(=O)N[C@@H](CS)C(N)=O)[C@@H](C)O)C(C)C)[C@@H](C)O` has a selectivity ratio of 1.5 ± 0.24 (MDA-MB-468 breast cancer; cell binding, phage binding, measured: output/input phage; 10 min, 37 °C; reference: control phage).
For `O=C(O)c1ccc(-c2nc(-c3ccccc3Cl)c3sccn23)cc1`, the fold change was 1.09 fold and 1.16 fold and 1.08 fold and 1.14 fold and 1.05 fold and 1.11 fold and 1.07 fold (human CD34+ hematopoietic stem cells; megakaryocyte differentiation, flow cytometry, measured: CD61; 10 µM, day 7, with: TPO; reference: control).
With `O=C(C[Se]C(=O)c1ccccc1Nc1cccc(C(F)(F)F)c1)Nc1cccc(C(F)(F)F)c1` the CC50 was 6.94 µM (NCI60 NSCLC subpanel; NCI60 five-dose screen).
Under “glutathione peroxidase activity (OD450)”, `NC(=O)N/N=C/c1ccc(OCc2ccccc2)cc1` is recorded as 0.349 a.u. (IMR-32; measured: GPX3; 500 µg/mL, 24 h; higher = more activity).

Repeated from above:
`Cc1c(Cl)cccc1Nc1ccccc1C(=O)[Se]CC(=O)Nc1cccc(C(F)(F)F)c1` has a CC50 of 6.44 µM (NCI60 renal subpanel; cytotoxicity, inhibitor; five-dose).
Under “mean growth percent”, `O=C(C[Se]C(=O)c1cccs1)Nc1cccc(C(F)(F)F)c1` is recorded as -88.3% (NCI60 non-small-cell lung subpanel; cell growth; 10 µM, 48 h, one-dose).
